Results pooled from the literature.
Every numbered part comes from another study and shows a few of its results, in no order.

Set 1
Target: Fragile X messenger ribonucleoprotein 1, C-terminal low-complexity region (Fmr1, Mus musculus, UniProt P35922)
Technique: RNA Bind-n-Seq
Form: RNA
Sample: in vitro
Concentration: 200 nM
Setting: whole 134-nt RNA, ends assumed
Together with: 150 mM KCl
Baseline: input library
Reading: higher = stronger binding
Constant ends, left off below: GGGAGUUCUACAGUCCGACGAUC … UGGAAUUCUCGGGUGUCAAGG
Oligonucleotide	log2 enrichment
GUCCUGUGCUACACAUCGUAUGUACCGAAUCGGGGAAAAAAAGGGGUGGGGAAAGGGGAAAGUAUUAUGUUACGCCGUUCGGAUCUGCAC	0.287
UGAAAAGAACUGCUCUCCAUGGAGAGAGUAACUCUGUCCUUAUUAUCGGACCCCGAGGAUCAGGAAAAACUAUGGUAAAAGCUGUUGAUU	-1.26
ACCAUGCAGGUGGGCAUCUUUGGGAAGUGGGGCAAGGGGGGGAUAGGGAGGGGGGUAACACUUUGGGAACAGGUGAAACCAGGUCGUUUC	0.217
UCCUGUGCUACACAUCGUAUGUACCGAAUCGGUUUUUUUGGUUUUUUUGGAAAAAAAGGAAAGUAUUAUGUUACGCCGUUCGGAUCUGCA	-0.67
AGUCCUGUGCUACACAUCGUAUGUACCGAAUCAAACCCAAACCCAAACCCCCCCAAAAAAGUAUUAUGUUACGCCGUUCGGAUCUGCACU	-0.186
UCAAGUCCUGUGCUACACAUCGUAUGUACCGAAUCGGAAAGGUGGAAAAAAAGGAAAGUAUUAUGUUACGCCGUUCGGAUCUGCACUUCC	-0.955
CUCAAGUCCUGUGCUACACAUCGUAUGUACCGAAUCGGCCGGGCCGGGCCGGGGAAAGUAUUAUGUUACGCCGUUCGGAUCUGCACUUCC	0.0356

Set 2
Target: Sal-like protein 4, full length isoform B (SALL4, Homo sapiens, UniProt Q9UJQ4-2, residues 1-616)
Technique: universal PBM
Form: double-stranded DNA, one strand shown
Sample: in vitro
Concentration: not given
Setting: 8-mer, flanks averaged, mean of replicates
Reading: higher = stronger binding
Oligonucleotide	E-score
CGCATATC	0.204
CGCGGGGC	-0.343
AGCTGACA	-0.0774
AATGTCAT	0.184
CCTGGTAG	-0.337
CGTGGATC	-0.263
GATGTTTA	0.127
CAACCCTA	-0.115
ACGAAACC	0.0459
TAAGCCCA	0.0445
ACGTTCTG	-0.149
CGACAATC	-0.129
AACCAGGA	-0.0854

Set 3
Target: Interferon regulatory factor 5, full length, phosphomimetic (IRF5, Homo sapiens, UniProt Q13568-2, residues 1-514, S451D/S453D/S456D/S462D)
Technique: protein-binding microarray
Form: double-stranded DNA, one strand shown
Sample: in vitro
Concentration: 940 nM top
Setting: 60-bp whole probe
Together with: salmon DNA 0.4 mg/ml
Baseline: random background probes
Reading: higher = stronger binding
Constant ends, left off below: GCCTAGCAC … GTCTTGATTCGCTTGACGCTGCTG
Oligonucleotide	fitted relative affinity
TACGGTTTCGGTTCCGGGACGTGCTAG	12.7 z-score
GACGGTATCGACTTTCGGTACGTGCTA	5.02 z-score
TAGAATGTCCTTTCTCCATGGGTGCTA	0.175 z-score
TTAGGTATCGGACTGGGTTAGTGCTAG	3.56 z-score
ACACTCTTCTTTTGCTAATTGTGCTAG	1.67 z-score
TTAGGTTCCCTTTTCCCTTAGTGCTAG	0.915 z-score
TCAGCTTTCCTTCTTGAACTGTGCTAG	0.89 z-score
GACGGTATCGTGTATCGGGACGTGCTA	1.92 z-score
GACGATTTCAGTCTCAAGACGTGCTAG	0.602 z-score
GACGATTTCGGGTATCGAAACGTGCTA	1.7 z-score
GACGAACTAAGTTTCGAGACGTGCTAG	3.33 z-score
TTAGGTTTCGGTTCCGATTAGTGCTAG	15 z-score
TAAGAACTGGGGTTTCGATTAGTGCTA	5.8 z-score
TTGTTTTTCATTATTGTCTTGTGCTAG	1.92 z-score

Set 4
Target: Histone acetyltransferase KAT6A, winged helix 2, GST fusion (KAT6A, Homo sapiens, UniProt Q92794, residues 85-181)
Technique: protein binding microarray
Form: double-stranded DNA, one strand shown
Sample: in vitro
Concentration: not given
Setting: 8-mer, flanks averaged, mean of 2 arrays, mostly near background
Baseline: not given
Reading: higher = stronger binding
Target sequence (chain): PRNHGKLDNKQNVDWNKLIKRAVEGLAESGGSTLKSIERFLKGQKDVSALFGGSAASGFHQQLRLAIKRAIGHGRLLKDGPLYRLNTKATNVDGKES
Oligonucleotide	E-score
CCATGAAG	0.00958
AAGCTAAT	0.114
AACTTACC	-0.0107
CTGTTGGA	0.113
AGAACAGG	-0.206
AAGAAGCA	0.161
GGTGCAGA	-0.0696
CCGTTGTA	0.0164
AGCCATGG	-0.0736
AAGGTGGG	0.108
ACGAAGCA	0.0657
AGTACAAC	0.047
GACTCAAC	-0.00983
GTAGGCCA	0.0813
TCATACGA	-0.0258
CAACGTGA	-0.3
CCCACGCA	0.254
ACCGGGGA	0.0242
ACGCATGC	0.153

Set 5
Target: RNA binding protein fox-1 homolog 2, RRM domain, GST-SBP tag (RBFOX2, Homo sapiens, UniProt O43251-10, residues 100-194)
Technique: RNA Bind-n-Seq
Form: RNA
Sample: in vitro
Concentration: 365 nM
Setting: natural RNA segment, single round, ends assumed
Baseline: no-protein control
Reading: higher = stronger binding
Constant ends, left off below: GGGAGUUCUACAGUCCGACGAUC … UGGAAUUCUCGGGUGCCAA
Target sequence (chain): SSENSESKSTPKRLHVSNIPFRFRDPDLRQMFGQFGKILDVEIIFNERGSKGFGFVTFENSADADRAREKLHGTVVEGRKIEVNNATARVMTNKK
Oligonucleotide	RBNS enrichment (R)
AUGAUUGAUGACGGGUUCCCGCCUGCUGUCCCCUCCCUGAUCACACAGCUAACGAGGCUGCCUCCAGCAUUUCCUGAUUUCCUCUGUGGUAAUAAAAGCUUUCUGUGCUU	0.579
AGCCUAGUACCUACGAAGCUAUUUCUUUACCAAAGUCUCUUGCUUCUGCUUAUGGUCGUGAGCUGAUCACGCAGUUUGCUAGAUGAUUUGACACUGGUGGUGAGUUCUUU	0.276
UGCCCUCCUCCCAUCUGCCUUGAGAUUCCCUCGUCUUCACUUAAAAGCCAGAGUGCAAGUCAUGAUUUGCGGGAGGGCUCUUGAACCACUUCUGGCUGCACCACAAUUCU	0.529
AAAAGUUUAUUCCAUUUAUUUUAGUUUGUGUUUACUUGAUUUUGAGGAAGAAAAUAUUUGACUUUGUGUAAAGAGUAGGGUAUCAGGGUGUCUUUUCUGCCGUGGGAGAU	0.656
GCAGUCAGGGCACCUGGAUUGUUCUGUUAUCGAUAUUGUUUCUUGUAGCGGCCUGUUGUGCAUGCCACCAUGCUGCUGGCCCGGGGGGAUUUGCUCUGAGUCUCCGGUGC	4.37
UCUUUUUUUUCCAAUUUCCUUGCUCCCAGGAUCCCCAUCUUGUAUAAAGUUUCUAAGGUGCUCCUCCUCAAACUCCAUUUUUACAAUAUCCGUAUUGUAAAAUUUUCAUU	0.589
CAGGGAAGGAUGACAAAAUGGAAAUUUAAAUGACAUCCUAGAGGUAGAGAAACCGUGGAGAUCGCUUUUCUCAGACUCACCAACUUUUAAUGGGAUUUCAUGGGGUUUGG	0.62

Set 6
Target: Hepatocyte nuclear factor 3-alpha (Foxa1, Mus musculus, UniProt P35582, residues 1-468, full length assumed)
Technique: EMSA with sequencing
Form: double-stranded DNA, one strand shown
Sample: in vitro
Concentration: 10 and 20 nM
Setting: whole designed probe, mean of two concentrations, ends assumed
Baseline: negative control set to 0
Reading: higher = stronger binding
Construct (chain): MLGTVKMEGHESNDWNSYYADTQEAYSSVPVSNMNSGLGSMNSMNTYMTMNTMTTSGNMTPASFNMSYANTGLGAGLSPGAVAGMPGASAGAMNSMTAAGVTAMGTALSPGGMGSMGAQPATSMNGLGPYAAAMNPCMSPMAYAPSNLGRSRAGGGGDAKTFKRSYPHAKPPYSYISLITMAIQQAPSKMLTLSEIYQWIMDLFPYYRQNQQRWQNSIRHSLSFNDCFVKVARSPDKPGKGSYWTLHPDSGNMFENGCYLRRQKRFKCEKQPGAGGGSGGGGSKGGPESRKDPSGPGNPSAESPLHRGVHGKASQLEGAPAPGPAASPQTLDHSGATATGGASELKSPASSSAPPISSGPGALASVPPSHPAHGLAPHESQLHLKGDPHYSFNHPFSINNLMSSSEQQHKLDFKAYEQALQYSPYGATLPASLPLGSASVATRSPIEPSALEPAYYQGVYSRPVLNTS
Oligonucleotide	normalised bound fraction [ratio]
GTGAGCGGTGCCCATTGATGGGGAACGGTAAATGCACCTTTAATTGATAAGACAGACAATTTTTGTAAAAGAATTGGAAAACCATCTGTACTGTAAACTTTTGTGTCTCTTTTTCATTCCTGTTTACTCTGCTATTCAATCCAAATAAAGATTGTTTTCACCTCAGCAACACAAAAATCACATAGACGATCCTTCAGGCTGTCAGTCAGAGGAAAGATATTTCACTGGGATCGTGGGGAC	0.19
GTGAGCGGTGCCCATTGATGGGGAACATCTTCCCCCTCTTCCTTGCCCCACCAGCTCACCTTCCCGGGTTATTTGCACAAAGGAAAATAAATAAAGCCGGCATTCGTTAACCCTCTTCTGGCGCAAACTGCTGTTTGCTCTGGATCTAACATGGTCCTTTGGCGAGGCGTGGCTCCGGGAGAGCAAAGCACCGTGTCAGGGCCATGATCCGGGGTGGCCTTTCACTGGGATCGTGGGGAC	0.362
GTGAGCGGTGCCCATTGATGGGGAACCACTCGGCTCCCCAGAGGTCAGCGCACCCCAAGCCCAGAGGCCGGCTGGCCTCGGGAGCTCTCACTCCACTATCTTCCCTCCTCCCTGAACTCTGTTTACACAAGGCTGGTCTTGGCTCTGAGGCTGCTAGATTTTAAATGCAATCTCACTGGTGACTCACTGGTGCATCGTCATTTGGCTTTGCCTGGAATTTTTCACTGGGATCGTGGGGAC	0.482
GTGAGCGGTGCCCATTGATGGGGAACTCCTCCCCCTCCTACCAGGCAGGGCTGAGCCAGACTGGGGTTCCAAAGCCCTTCCTCCTTCTCGATCCAGAGATAAATATTTGTTTCTCCAGTGTAAATAGCCCTTCGTGTTTAATGAGGCAATCCTAGGGCCATTTCCTGGCACGGCTCAGGGCCTGGAGGTCTTTCTCGCTCTGGGAGGAACAGTCCTAGGTTTCACTGGGATCGTGGGGAC	0.194
